Results pooled from the literature.
Values joined by “and” are separate records of one study, mostly repeats; a detail may differ. Numbers after ± are the reported error.

Compound | system | conditions | tissue uptake
COc1cc2ccnc(Cc3ccc(O[11CH3])c(OC)c3)c2cc1OC | Sprague-Dawley rats, blood | intravenous, 0.5 h | 0.108 ± 0.02 %ID/g
N=C(N)NCc1ccc(C(=O)NCCCC[C@H](NC(=O)CCCCCCC(=O)NCCCC[C@H](NC(=O)N[C@@H](CCC(=O)O)C(=O)O)C(=O)O)C(=O)O)cc1[131I] | SCID mouse, PC-3 xenografts, lungs | 1 h | 1.39 ± 0.36 %ID/g
CN[C@](C)(C[18F])C(=O)O | SCID mouse SK-OV-3 xenograft, heart | 15 min post injection | 2.7 ± 0.4 %ID/g
CCNc1cc2[o+]c3cc(NCC)c(C)cc3c(-c3ccccc3C(=O)OCCOCC[18F])c2cc1C | rat, heart | 60 min | 1.32 %ID/g and 1.77 %ID/g
O=C(c1ccc(F)cc1)C1CCN(C2Cc3c(cccc3OCC[18F])CC2O)CC1 (single isomer, unassigned; (-)) | Sprague-Dawley rat, male, heart | intravenous, dose not given, 120 min | 0.336 ± 0.016 %ID/g
N=C(N)NCc1ccc(C(=O)NCCCC[C@H](NC(=O)N[C@@H](CCC(=O)O)C(=O)O)C(=O)O)cc1[131I] | SCID mouse, PC-3 xenografts, spleen | 2 h | 7.31 ± 3.73 %ID/g
CCCC[C@H](NC(=O)CN1CCC(NC(=O)CN2CCC(NC(=O)CN3CCN(CC(=O)O)CCN(CC(=O)O)CCN(CC(=O)O)CC3)CC2)CC1)C(=O)N[C@H]1CC(=O)NCCCC[C@@H](C(N)=O)NC(=O)[C@H](Cc2c[nH]c3ccccc23)NC(=O)[C@H](CCCNC(=N)N)NC(=O)[C@@H](Cc2ccccc2)NC(=O)[C@H](Cc2c[nH]cn2)NC1=O [gallium-68 labelled] | C57BL/6J mice male B16-F10 tumour, liver | 1 h post injection, unblocked | 0.5 ± 0.1 %ID/g
COc1ccc(C)cc1NC(=O)OC1CC2CCCC(C1)N2Cc1ccc(CC[18F])cc1 (centres unmarked) | BALB/c mice, EMT6 tumour, muscle | 5 min | 4.6 ± 0.76 %ID/g
